Measurements collected from several papers.
Each numbered part is a random draw from the data of one study; scales do not carry over between parts. Positions count from the first letter of the parent shown.

Study 1 — method: DHFR PCA, deep sequencing; sample: yeast; together with: (+)-ABA 0.0091 µM; reference: wild-type fitted maximum; direction: higher = stronger binding; endpoint: relative binding score
Target: ABI1, truncated, D143A, DHFR fusion (Arabidopsis thaliana)
Setting: methotrexate growth selection, single substitutions
Starting sequence: PYL1, truncated, DHFR fusion (Arabidopsis thaliana); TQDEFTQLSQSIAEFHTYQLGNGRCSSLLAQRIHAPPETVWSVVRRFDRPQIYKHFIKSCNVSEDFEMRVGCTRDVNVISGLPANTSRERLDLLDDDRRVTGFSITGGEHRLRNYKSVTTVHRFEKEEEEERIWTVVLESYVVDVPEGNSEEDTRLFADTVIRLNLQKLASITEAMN
L20C: 39.1%
T119Q: -0.735%
T120M: -4.3%
R24N: 4.64%
P83I: -6.58%
L138A: 0.771%
E64T: 25.6%
E174S: 2.23%
N77Y: 41.5%
K116V: 8.03%
V145L: -3.73%
E147S: 8.68%
Q2L: 63.2%
N114I: 1.32%
E67M: 9.27%
T39E: 1.38%
R111C: 4.8%
V78P: 0.771%
V161R: -0.148%

Study 2 — method: RNA Bind-n-Seq; form: RNA; sample: in vitro; tested at: 365 nM; reference: no-protein control; direction: higher = stronger binding; endpoint: RBNS enrichment (R)
Target: RNA binding protein fox-1 homolog 2, RRM domain, GST-SBP tag (RBFOX2, Homo sapiens, UniProt O43251-10, residues 100-194)
Setting: natural RNA segment, single round, ends assumed
Constant ends, left off below: GGGAGUUCUACAGUCCGACGAUC … UGGAAUUCUCGGGUGCCAA
Residues (chain): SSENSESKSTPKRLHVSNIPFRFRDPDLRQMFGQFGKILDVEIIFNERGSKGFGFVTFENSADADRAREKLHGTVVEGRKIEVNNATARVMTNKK
GUGUGGAGUCAGUGCUGACAUCACUGGCUUGUGCUGUCUGUCACAUGUGUUUGUCUCUGCUGCUUGACCUCAUGGGAUGUACCCUCCAGUUCAACUGCCCAAAACAGACA: 0.238
CUUGCUGUUAAGUGGUCUUCCCCCAUUGGGAUCCUACAGUCCCACAGAUGAAAGCACAGUAGUAGCUGACAGCUGGCUUAUUUGGUCCCUCGGCAUCUCUCGUAUGUGGC: 0.352
UGAUAUUCUAGGGUUGGUUUGUAGAUUCAAAUAAUCCAGAAAUAUACCUAAUAAGAUUGAGUGAAAAAUUUGAGUCAAAUAUCUAGGGCAUUCACAGAGUAGCUGUGAGU: 0.623
UUCAUAGUCAUUGAGAAUGUGGAGAUACCAGUUUGGGUGGGGGGUGAUCACCAGGGGACCUAGGGAGAUCCCCUUCCCACCCUCUCUGUUGGCCUCAGAGUCACUCCUGC: 0.267
UAGUUGGCGAGGCACCUGCACAUUUCUGAGUGUCCAUGUUUCCUUUGAGACAUCCCCAUUUCUAUGUAGGUGGGAUUUUGCUUUCAUUUCUGAUUUAAAUUAGCUCCUUG: 0.394
UGACCCAUGUGCGGCAGGGACUCGGCAAAGCUGUGAGGAGCUGAGCUCCGGAGACAGGCACAGCUCUGGCAGAAAGCUCAACGCUAAGGGAUCUCCUUCCCAGUUUCAGC: 0.239
CUGGCCCCCCCUUAACACUGGAGCCCCACUCCCUUCUCCCAUCCGGCCCGAGAUUAGGGAGGAUUGACUGUGUCAGGGAUGGCGGGUGGCCUCUCUCGCUGCCAGGGCCC: 0.477
AGUUGGCCAUCCCAAAUUUCAUCGGUCCAUAGACACAAGCACAGAGCAAGAAACAAGGGCCUUAGAUGUGCCACGAAGGGCCCUUUGGUGGGCUGUGUGACAGUCGCGUG: 0.439
AUUCCGGCUCGGCCCGCUCCUGCACCUCCUUUAUAUAGCUCCCUCACCUGAUAGUAGAAUAUUAGAAUCUUAUUUUUUAAAUGUCUUCAGGGAACUGAGCAAAUGUUUGU: 0.666
UACUAUUUAUUUUACCCCACACCCUAAGUUGGCAUACUUAUUCCCAGUCUUACUCCUGAUCUCUUUAGUCCCAAUCCUGCCAAUAAAAAGCAUCGUUUAACUUGUUCUAU: 1.21
UCAUCAGCAAACCAGGCCAGCAUUCCACAGUCCUCUGCCUAAAGCUAAGCUUGGCCCUCACCAGCCAGCUUCACUGGAGCACCCAGAACACUUAGCUGGCCACCGCUUUA: 0.395
CAUGCAUCCUAGCCAGUGAGUGCUACAUCCUUUGCAAGUGGAGUUACUGGCCUACCCUUACCCCAUGCAUUCUUCCUGUCUGCACUGCCUGGGCCAAGGGGCAGAAACAC: 1.84

Study 3 — method: RNA Bind-n-Seq; form: RNA; sample: in vitro; tested at: not given; setting: RNA with constant flanks, ends assumed; reference: input RNA pool; direction: higher = stronger binding; endpoint: bound/input enrichment
Target: RING finger protein unkempt homolog, zinc fingers 1-6, GST-SBP tag (UNK, Homo sapiens, UniProt Q9C0B0, residues 30-357)
Sequence of UniProt Q9C0B0 (30-357, looked up): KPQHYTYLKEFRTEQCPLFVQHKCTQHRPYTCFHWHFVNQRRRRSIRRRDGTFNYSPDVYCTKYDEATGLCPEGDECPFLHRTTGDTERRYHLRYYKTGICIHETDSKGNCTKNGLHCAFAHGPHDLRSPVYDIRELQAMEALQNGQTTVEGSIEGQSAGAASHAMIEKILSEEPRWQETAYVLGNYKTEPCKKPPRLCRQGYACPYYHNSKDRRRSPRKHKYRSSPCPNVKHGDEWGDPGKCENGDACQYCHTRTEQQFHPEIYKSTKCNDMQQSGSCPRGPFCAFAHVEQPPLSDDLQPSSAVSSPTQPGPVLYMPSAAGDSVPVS
Constant ends, left off below: GGGAGUUCUACAGUCCGACGAUC … CAACAGAGGAUUGAGCAUCA
UUAUAUCUUUCUGUCAUUCGAAAGAUACCAGCCUUGACUGAAAAUGACCCUGAAACUUGGACCGUUUGUAAUUUUUCUGUGGAUCAUGACAGUGCUCCUCUAAACAACCGAUGUGUCCGU: 0.154 ratio
GUCACAAGACCAAUAUUUGGUAUACUGGGCACAAUCCAUCUGGUGGCAGGUAAUUAUCUUACCGUCAUUACCAAAAAGAUAAAAGUAGGUGAAUUUUUCAGUCAUGUAGUCUGGAAAGCA: 0.98 ratio
UGUGGAAUCAAGCACCUUCAUUCUGCUGGAAUUAUUCAUCGGGACUUAAAGCCCAGUAAUACCGCCGUAAAAUCUGAUUGCACUUUGAAGAUUCUUGACUUCGGUCUGGCCAGGACUGCA: 0.235 ratio
GUUAGAAAAAGAAUUACAGCUUUGCAAUAUAACUAAUUGUUUCGCAUAAUUCUGAAUGUAACCGAUAUGAAUAAUCAGCCUGUGUUUUUAAUGAACUUAUUUGUAUUUUCCCAAUCAUUU: 0.437 ratio
CCGUUUCUAGUAUAUUCCUGUAAAUGUCAGUUACUGAAAAUGAGUCCAAUGUAAGCCGUUCCGCUUGUUUAUUGCAAUGCUGGCCUCAACACAACAGAAUAAAAAUGGUAGAAAGUACUC: 0.358 ratio
UUUGAAGAAGGUGAAGAAACAAUUACAGCCUUUGUAGAACCUUUUGUAAUUUUACUCAUAUCCGCCGCCAAUGCAAUUGUGGGUGUAUGGCAGGAAAGAAAUGCUGAAAAUGCCAUCGAA: 0.305 ratio
CUUGGUGUUCAUAUGUAUCUUUUAAUUUUUUUGAAAUUUGUUCAAGCUGUCAUUCCAACAACCGAAUAUGACUACACAAGACACUUCACAAUGUAGUGGAGAGGCUAUAGAGUCUAUCCU: 1.25 ratio
CUAAUCGCCUCACAAAAAUUCACAGACAAACGCAUUGGCUAUUUAGGAGCAAUGCUAUUAUCCGAUGAAAGACAAGAUGUGCAUCUUCUCAUGACCAACUGUAUCAAGAAUGAUCUUAAU: 0.461 ratio

Study 4 — target: OGT, full length, His-tagged (human); method: phage display, sequencing; sample: in vitro; tested at: 1 µg OGT; reference: input library; direction: higher = stronger binding; endpoint: fold enrichment; starting sequence: peptide; TAPFYPPAYQIQVFK
Setting: single substitutions, 15-mer displayed peptide, unchanged parent 19.6
K15R: 11.8 fold
F14G: 18.5 fold
V13T: 13.8 fold
A8I: 17.1 fold
Q12G: 1.99 fold
F4P: 7.8 fold
A2H: 14 fold
F14I: 12.8 fold
Y5I: 0.952 fold
Q12I: 5.44 fold
F14K: 24.2 fold
A8Q: 15.6 fold

Study 5 — target: CCNE2, cyclin fold, Cln2 fusion (human); method: yeast growth competition, sequencing; sample: yeast; setting: strong parent motif; reference: not given; direction: higher = stronger binding; endpoint: normalised enrichment score
Starting sequence: BRCA2 docking peptide (human); PSIKRNLLNEFDR
P1R: 1.95
F11H: 0.23
N9I: 2.07
E10D: 2.52
F11Q: 0.316
R13F: 1.16
N6F: 1.44
S2T: 1.67
F11Y: 0.554
N6T: 0.76
N6C: 0.0913
E10M: 0.832
I3Q: -0.116
P1Y: 3.12
R13V: 1.26
L7Q: 0.172
P1V: 1.76
K4H: 0.401
R13Q: 1.2
F11E: -0.144
R13Y: 1.07
E10A: 0.636
D12I: 0.438
R5S: 0.429
R13T: 1.47

Single results of other studies
PhoQ, residues 284 288 289 292 302 303 SQSLSM  fold induction (PhoP, residues 12 14 15 18 19 TPWLV (Escherichia coli, UniProt P23836); Sort-seq, refers to: YFP reporter; E. coli; PhoQ-PhoP variant library, together with: 10 µM Mg2+; reference: high Mg2+ state, higher = stronger signaling): 1.79

Some of these lines once more (study 1):
E67M: 9.27%
T39E: 1.38%
P83I: -6.58%
R111C: 4.8%
R24N: 4.64%
V145L: -3.73%
V78P: 0.771%
E174S: 2.23%
Q2L: 63.2%
L20C: 39.1%
V161R: -0.148%
N114I: 1.32%
E64T: 25.6%
